Results gathered from unrelated publications.
Each numbered part is a random draw from the data of one study; scales do not carry over between parts. Positions count from the first letter of the parent shown.

Series 1 — technique: RNAcompete; form: RNA; medium: in vitro; concentration: 20 nM; setting: 7-mer, probes averaged, single round; reference: mean of 7-mers; reading: higher = stronger binding
Target: PABPC1L2, full length, GST fusion (mouse, UniProt A0ABA7IW68)
Residues (chain): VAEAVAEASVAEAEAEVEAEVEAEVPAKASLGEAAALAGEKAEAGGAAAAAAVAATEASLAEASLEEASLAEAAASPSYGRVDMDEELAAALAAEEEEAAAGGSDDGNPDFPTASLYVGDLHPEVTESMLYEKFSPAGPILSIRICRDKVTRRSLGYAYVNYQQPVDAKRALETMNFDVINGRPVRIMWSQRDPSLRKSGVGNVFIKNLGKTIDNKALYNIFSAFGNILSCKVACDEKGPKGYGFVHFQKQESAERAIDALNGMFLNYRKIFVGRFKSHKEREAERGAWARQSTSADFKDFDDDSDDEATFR
| Oligonucleotide | 7-mer Z-score |
| --- | --- |
| GAAGAAU | 0.0968 |
| GUCGCUG | -0.229 |
| GAUGCGA | -0.00652 |
| CCCCACG | -0.436 |
| ACGGCUU | -0.237 |
| CAUAACC | -0.282 |
| GCUACCG | 0.017 |
| GGGCUGC | 0.149 |
| CUACGUG | -0.132 |
| AUGUCGA | -0.0899 |
| UGGAAAG | -0.00289 |
| GUUGCAC | -0.121 |
| CUAAAUG | 0.0877 |
| UCAGCGU | -0.307 |
| GGAUCCU | -0.0554 |
| CACUGAA | -0.0464 |
| GGUGGUA | 0.153 |
| GCAACCC | 0.00798 |
| CGGGGGC | 0.229 |
| ACUCUUU | -0.133 |
| ACGUCUC | -0.284 |
| UUGUUAG | -0.335 |
| CCGUCCC | -0.474 |
| AACGGAC | 0.273 |
| GGGUUCG | -0.101 |

Series 2 — target: CCND3, cyclin fold, Cln2 fusion (human); technique: yeast growth competition, sequencing; medium: yeast; setting: weak parent motif; reference: not given; reading: higher = stronger binding
Starting sequence: CDKN1A docking peptide (human); SKACRRLFGPVDS
| Substitution | normalised enrichment score |
| --- | --- |
| SKACCRLFGPVDS [R5C] | -0.0468 |
| SKACRRLIGPVDS [F8I] | 0.288 |
| SKACIRLFGPVDS [R5I] | 0.32 |
| SGACRRLFGPVDS [K2G] | 0.348 |
| SKACRCLFGPVDS [R6C] | 0.184 |
| SKFCRRLFGPVDS [A3F] | -0.422 |
| SEACRRLFGPVDS [K2E] | 0.429 |
| SKACRRLFIPVDS [G9I] | 0.445 |
| SKNCRRLFGPVDS [A3N] | -0.442 |
| SKACHRLFGPVDS [R5H] | 0.0667 |
| SKACRNLFGPVDS [R6N] | 0.388 |
| SKACRRDFGPVDS [L7D] | 0.18 |
| SKACRSLFGPVDS [R6S] | 0.436 |
| SPACRRLFGPVDS [K2P] | 0.587 |
| SKACRRLGGPVDS [F8G] | 0.0777 |
| SKACRRLFEPVDS [G9E] | 0.455 |
| SKACRRLFSPVDS [G9S] | 0.306 |
| SKACRKLFGPVDS [R6K] | 0.574 |
| SKMCRRLFGPVDS [A3M] | -0.0507 |
| SKACRILFGPVDS [R6I] | 0.293 |
| SKACRRLNGPVDS [F8N] | -0.133 |
| SKAYRRLFGPVDS [C4Y] | -0.378 |
| SKACRRLFGPLDS [V11L] | 0.343 |
| SKACRRLFGPVSS [D12S] | -0.137 |
| SKAGRRLFGPVDS [C4G] | 0.189 |

Series 3 — target: JUN, bZIP domain (human); technique: DHFR protein complementation; medium: yeast; reference: wild-type JUN-FOS pair; reading: higher = stronger binding
Setting: single substitutions, most at no-binding floor
Starting sequence: JUN, bZIP domain (human); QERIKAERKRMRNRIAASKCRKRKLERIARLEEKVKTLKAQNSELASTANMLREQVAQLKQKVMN; partner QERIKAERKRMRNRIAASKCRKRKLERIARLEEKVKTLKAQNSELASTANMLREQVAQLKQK
| Substitution | binding fitness |
| --- | --- |
| R30M | -0.167 natural log |
| E32I | -0.567 natural log |
| Q55I | -0.503 natural log |
| Q58S | -0.111 natural log |
| K34A | -0.0906 natural log |
| S43D | -0.0133 natural log |
| A57I | -0.451 natural log |
| L45A | -1.13 natural log |
| A46Y | -0.494 natural log |
| E54M | -0.519 natural log |
| A57T | -0.209 natural log |
| M51S | -0.197 natural log |
| T48E | -0.168 natural log |
| E32A | -0.334 natural log |
| A40T | -0.166 natural log |
| A40K | -0.0824 natural log |
| R53K | -0.428 natural log |
| T37D | -0.149 natural log |
| I28Y | -0.981 natural log |
| A40D | -0.281 natural log |
| A29S | -0.38 natural log |
| E32Y | -0.988 natural log |
| S43V | -0.256 natural log |
| T37A | -0.0972 natural log |
| A29R | -0.139 natural log |

Series 4 — technique: protein binding microarray; form: double-stranded DNA, one strand shown; medium: in vitro; concentration: not given; reference: not given; reading: higher = stronger binding
Target: Histone acetyltransferase KAT6A, winged helix 1, GST fusion (KAT6A, Homo sapiens, UniProt Q92794, residues 1-85)
Setting: 8-mer, flanks averaged, mean of 2 arrays, mostly near background
Construct (chain): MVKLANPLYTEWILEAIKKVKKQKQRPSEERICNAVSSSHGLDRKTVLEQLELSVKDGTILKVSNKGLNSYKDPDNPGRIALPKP
| Oligonucleotide | E-score |
| --- | --- |
| TGCTCAAA | -0.241 |
| AGTGTGAA | -0.207 |
| CTGGTTCC | -0.0863 |
| GATTGGCC | -0.0266 |
| ATACAAGG | -0.228 |
| GGCGTATA | 0.241 |
| CATTCCAA | -0.0402 |
| AGGCCGCA | 0.0845 |
| CATGTATC | -0.0425 |
| AAATGATA | -0.0118 |
| CACGACCC | -0.115 |
| ACCCGGTC | 0.291 |
| ACCCATCT | -0.0595 |
| GCTCCCCA | -0.128 |
| ACGCAAAG | -0.0462 |
| CAATGGGG | -0.0106 |
| CAACTGTG | 0.0275 |
| CAGATGGC | -0.0282 |
| ATCGAGAA | -0.323 |
| CATGAGAG | -0.151 |
| CCAGCCTC | -0.258 |
| ACGGGGGC | 0.297 |
| GGTAGCGA | 0.101 |
| CCATAGAA | -0.113 |
| ATTAGGAC | -0.106 |

Series 5 — technique: RNA Bind-n-Seq; form: RNA; medium: in vitro; concentration: not given; reference: input RNA pool; reading: higher = stronger binding
Target: RING finger protein unkempt homolog, zinc fingers 1-6, GST-SBP tag (UNK, Homo sapiens, UniProt Q9C0B0, residues 30-357)
UniProt Q9C0B0, sequence (30-357, looked up): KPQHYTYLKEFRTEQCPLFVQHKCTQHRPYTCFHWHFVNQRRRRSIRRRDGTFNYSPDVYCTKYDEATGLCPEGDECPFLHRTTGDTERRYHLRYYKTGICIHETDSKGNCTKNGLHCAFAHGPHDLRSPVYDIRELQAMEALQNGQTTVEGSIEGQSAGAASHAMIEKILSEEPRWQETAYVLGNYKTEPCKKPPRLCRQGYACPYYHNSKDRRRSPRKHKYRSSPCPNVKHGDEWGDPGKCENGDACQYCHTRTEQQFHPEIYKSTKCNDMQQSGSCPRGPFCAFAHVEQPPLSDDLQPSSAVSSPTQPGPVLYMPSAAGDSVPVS
Setting: RNA with constant flanks, human-mouse chimeric sites, ends assumed
Constant ends, left off below: GGGAGUUCUACAGUCCGACGAUC … CAACAGAGGAUUGAGCAUCA
| Oligonucleotide | bound/input enrichment |
| --- | --- |
| GAGCCCAGCCGGCAGUUUGUAAAGGACUCAAUUCGGCUGGUUAAAAGAUGCACUAAACCCGACAGAAAAGAAUUCCAGAAGAUUGCCAUGGCUACAGCAAUAGGAUUUGCUAUCAUGGGA | 0.119 ratio |
| GGCUGCUGGUGACUGUCCUGGAGUGGCUGGAGUUCCCGCCGGAGCGCGGCCAGACUAAUUUUAGAAAAUGCCAAGUAGGAAAUUUGCUGAGGGUGAAGUGGUCAGAGGUCGAUGGCCUGG | 6.1 ratio |
| UACUCAACUUUCUUGCCACGUUUUGAAUUCCAAGACAUUAUUCCUCCAGAUGACUUCCUAACGAGUGAUGAAGAGCAAGAUUCCGUUUUAUUUGGAACUAUGAGAGGACAAGUUGUUGGA | 0.194 ratio |
| GAAACAUUUAAAUUUAAAGAAGCUGUUGUUUUAGGGAGUACGGACUUUCUAGAAGAUGAUAUAGAGAAAAUUGUAGAAGAACUGGGGAAAGAGUAUAAGGGCAACGCCUACCAUCUGAUG | 2.9 ratio |
| GGACAUCUGUCAAAUUGUAUUUCCCGUGUGAAACAAGUGAACACUCUGAUACACUUCAUCUGCUUGUACAUCUGUAUGAUAGAGAAAUGUAAAUAUGAAUAUAUUUACAAUGUGUCACUU | 0.116 ratio |
| CACACACUCUUCUGCGGCACCCUCAUUUUGCAGGCCCGGGCCUAUGUGGGACCGCACGUCCUGGCAGUGGUGACCCGGACAGGGUUCUGCACGGCAAAAGGGGGCCUGGUGAGCUCCAUC | 0.11 ratio |
| GGAUCUUUGGGACUGUUUUACUUAAUUGGUCAUUGAUAUCUCAACAAACAUGGAGAUAAGAUUAGAAAUCUUGACAUCAACAGGUAUUAAGCAGAAAAAACCAUGGCCACGUGUCUCCUG | 0.154 ratio |
| GAGCCCAGCCGGCAGUUUGUAAAGGACUCAAUUCGGCUGGUUAAAAGAUGCACUAAACCCGACAGAAAAGAAUUCCAGAAGAUUGCCAUGGCAACAGCUAUAGGAUUUGCUAUCAUGGGA | 0.165 ratio |

Excerpt of the above (series 1):
| Oligonucleotide | 7-mer Z-score |
| --- | --- |
| GUUGCAC | -0.121 |
| ACGUCUC | -0.284 |
| ACGGCUU | -0.237 |
| UUGUUAG | -0.335 |
| GGAUCCU | -0.0554 |
| GAUGCGA | -0.00652 |
| CCGUCCC | -0.474 |
| CACUGAA | -0.0464 |
| GGGCUGC | 0.149 |
| GGUGGUA | 0.153 |
